Measured values pooled from the literature.
Every numbered part comes from another study and shows a few of its results, in no order.

Study 1
Target: RNA binding protein fox-1 homolog 2, RRM domain, GST-SBP tag (RBFOX2, Homo sapiens, UniProt O43251-10, residues 100-194)
Method: RNA Bind-n-Seq
Molecule type: RNA
Sample: in vitro
Tested at: 365 nM
Setting: natural RNA segment, single round, ends assumed
Relative to: no-protein control
Direction: higher = stronger binding
All sequences stand within: GGGAGUUCUACAGUCCGACGAUC … UGGAAUUCUCGGGUGCCAA
Residues (chain): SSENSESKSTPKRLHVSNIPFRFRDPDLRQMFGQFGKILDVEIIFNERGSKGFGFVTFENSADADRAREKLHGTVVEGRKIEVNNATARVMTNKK
Strand	RBNS enrichment (R)
GACAAUGCAUGGGGUGGUCUUUAUUUUUCCCUUUCAAAUAAAACACUAGUCAGGUACCGUUUUAUCCCAGUCGUACUCUUCCAGGUUUGGAAGACCCAGAGAGGCCAAGA	10.1
CUUGAAUCCUCUAUUAAUUACUGUGUGUGAGCCAGAGGGAGCUGUGGUAAGGGUUGGGCCCCCAGCCUGUAGGGAACUUUCUGGACUCCCACUCUUUGAAUCGAUAUAGG	0.491
UCUUUUUUUUCCAAUUUCCUUGCUCCCAGGAUCCCCAUCUUGUAUAAAGUUUCUAAGGUGCUCCUCCUCAAACUCCAUUUUUACAAUAUCCGUAUUGUAAAAUUUUCAUU	0.589
GGCUCCAACUUCAGGAAAUAAAUUUCCCAUUGCGAGGGACCCAGCUCUGUUUCUGCUGCUUCCAUCAAAGCCAAAAGGACCUACACUAAAGAAAUGCAGGGUGGGGGUGG	0.445
CCUGUCAGUUCAGAAAAAAUGUGAAGUCUACUUUAGUAUUCCUGUAAUACUAAACCGUUGAGUUUCUAAAUAUUUAUUUAUUCUAACAAAAAGCAAUUACUACAAAUGGA	0.407
AUGGAGUUCCAUUCUUGACAUCUACUUUGGACCAAGGAGCAUCCCUAGUUCUUCAUAGGGACUCUUAAAAUGCAGGAGAACCAUCCGAAGUCAACUCGGGGGACAUGCAA	0.214
UUUUUACAUUUAAUCUAACAUGUUAACACGUUCUAACAGGGUUUCUAUGAGCAGCUGCUGUAACAUACUCAUCAACUAUGAUAGACUUAACACUUGUUACCUAAUGAACA	0.439
CAGGCGUGUCACUUGAGGCCAGGAGUUCGAGACCAGCCUGGCCAACAUGAUGAAACCCCGUCUCUACUACAAAUACAAAAAUUAGCCGGGUGUGGUGGCACACGCCUGUA	0.73
CCUACAUGGUGUGAUGCUGCAUUAUAUAUACAACCGUGUGCAUAUAUUAAAUUCUGUUUGUCGAGUCUGCUUGGGAUUCUUUGGUCUUUGGGUAACCCAAUAUAUCAUAU	1.36
GUCCUGGCAGCUUCUCUGAGGUGCUGCUCGUUUGCAUUAGUCCCGCCUCCUCCAUCUUUCAUGUGGUACCCAGGUAAAUGUGGACAUAGUGUGAAGGGACCUGUGGCCAC	0.786
CAACUAGAUUUUAAGUAGCAUCCAUAGACUUACUCUUUUUGAGCUUGAAGGACUAAAUUAUUAAUUAUUGUUCAGUAAUGAUCACCUAAUUUUUCCCAUAAGAAUUAUAA	2.07
AAUUUUUAUUUGCAGCUUAGGUUUUUAUAUGAAGUUGCAUUAUUGUGGACUUGGCUGUCUUGUGAUGUAUUUUUUUCAUAUGUAUCCUGUGCCAUACUAUUGUUAAAAUG	0.461

Study 2
Target: Centromere-binding protein 1, full length, N-terminal tag (CBF1, Saccharomyces cerevisiae, UniProt P17106, residues 1-351)
Sequence of UniProt P17106 (whole entry, looked up): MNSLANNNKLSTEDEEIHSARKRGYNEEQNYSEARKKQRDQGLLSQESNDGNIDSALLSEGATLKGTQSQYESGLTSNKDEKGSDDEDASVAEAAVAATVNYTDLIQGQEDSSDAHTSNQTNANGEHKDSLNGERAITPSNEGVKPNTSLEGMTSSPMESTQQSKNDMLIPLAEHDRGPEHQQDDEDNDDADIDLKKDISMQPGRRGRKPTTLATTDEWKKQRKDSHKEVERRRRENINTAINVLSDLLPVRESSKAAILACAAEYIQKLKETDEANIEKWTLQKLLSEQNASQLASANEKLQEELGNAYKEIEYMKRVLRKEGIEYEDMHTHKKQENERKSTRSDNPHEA
Method: protein-binding microarray
Molecule type: double-stranded DNA, one strand shown
Sample: in vitro
Tested at: 0.8 µM
Setting: whole 60-bp probe, no competitor
Direction: higher = stronger binding
All sequences stand within: … GTCTTGATTCGCTTGACGCTGCTG
Strand	fluorescence intensity
CTATATGTTAACGATAACGTGTTGGACTCATCGTTC	640 a.u.
GAAGGCTGTTGTTGTCACACGATTCGGACAATTTAG	597 a.u.
GAAAAAACGCACAGGGTGATGATCTGCAAATTCTAG	569 a.u.
TGTACGAAGCTATCACACACGCCTATAGTAGTTAGG	531 a.u.
CTACAATGCTGCGATCACGAAAATTATCAACATTTC	600 a.u.
CTATCTCTCCATATTCACCTGTTACCCAGAGGGTTC	548 a.u.
CTACGTTTTCCTCTTTTGGTGATGAGCAGCATCTTC	552 a.u.
GAATTGTGGGTTTATTACGTGAAAAAATGATGTTAG	555 a.u.
GAATTTTCGTTAAAGGTGATTACAGGCGGTGACTAG	570 a.u.
CTAATATATATGTGTCATGCGAGTCTTTACATTTTC	649 a.u.
GAACTGTGATGCAGGGCCGTGACGCCCTGTTAGTAG	588 a.u.
GAATGTCACCATGGTCAGATGACCATATTATTTTAG	6170 a.u.
CTATCAGTAGTTTGTCACCTTAGTTGGAGATAGTTC	529 a.u.
GAATGCACACTGTATGTGATGACGGCTATCATTTAG	520 a.u.
GAACACGGAACGCACGTGGCGGGACTCGTAGGTTAG	4290 a.u.
CCTAACTACTATAGTATCATGACATAGCTTCGTACA	560 a.u.
GAAACCTGTTGACATGCCGTGGCAAATGATTGGTAG	487 a.u.
CTATGTTAGTATCCAAGTGTGACCAACATGTTCTTC	619 a.u.
TGTACGAAGCTATGTCACGTGATTATAGTAGTTAGG	39300 a.u.
CTAAAATAAAGGGAACACACGTGAAAGTGAAGGTTC	1770 a.u.
GAAAGTCACTACCTTCATCACCCGTACGAGTATTAG	527 a.u.
CTAGGGTTATACCATCACGTGATAATAAATCCATTC	33900 a.u.

Study 3
Target: Fragile X messenger ribonucleoprotein 1, C-terminal low-complexity region (Fmr1, Mus musculus, UniProt P35922)
Method: RNA Bind-n-Seq
Molecule type: RNA
Sample: in vitro
Tested at: 200 nM
Setting: whole 134-nt RNA, ends assumed
Together with: 150 mM KCl
Relative to: input library
Direction: higher = stronger binding
All sequences stand within: GGGAGUUCUACAGUCCGACGAUC … UGGAAUUCUCGGGUGUCAAGG
Strand	log2 enrichment
GCAGGAGGUAAAAACAAAUGGAAAUGCUUCGGAUAGUGGCAGGGGUGGGGGUUGCUAAGGAAAGGGUGGGAUGGGAGUGGGUAAAGAGUU	0.147
UGGCCCUGGUGGCAUGCGGGGAGGAAGAGGUGGUCUCAUGGAUCGUGGUGGUCCCGGUGGAAUGUUCAGAGGUGGCCGUGGUGGAGACAG	0.0844
GAUCUCCGGGCUCAGUUGCAGAUUCUGGCCAACAUGGACAGCCAGCUAAAAGAGCUACAGAGUCAGCAUACCCAUUGUGCCCAGGACCUG	-1.34
CCUCAAGUCCUGUGCUACACAUCGUAUGUACCGAAUCGGGCGGGCGGGCGGGAAAGUAUUAUGUUACGCCGUUCGGAUCUGCACUUCCAG	1.09
GUCCUGUGCUACACAUCGUAUGUACCGAAUCGGCCCCCGGGGCCCCCGGGGCCCCCGGAAAGUAUUAUGUUACGCCGUUCGGAUCUGCAC	-1.57
CAAGUCCUGUGCUACACAUCGUAUGUACCGAAUCGGGCCCGGCCCGGGCCCGGGGAAAGUAUUAUGUUACGCCGUUCGGAUCUGCACUUC	-1.06
CCUGUGCUACACAUCGUAUGUACCGAAUCGGGGUUUGGGGAAAAAAAGGGGAAAAAGGGGAAAGUAUUAUGUUACGCCGUUCGGAUCUGC	0.0811
UGGGAGGUGGAUUUUGUUUAUUUUUUUAGCUCAUUUCCAGGGGUGGGAAUUUUUUUUUAAUAUGUGUCAUGAAUAAAGUUAUUUUUGAAA	0.0611
GCAGGAAGUAAAAACAAAUGGAAAUGCUUCGGAUAGUGGCAGGGGUGGGGGUUGCUAAGGAAAGGGUGGGAUGGGAGUUGGUAAAGAGUU	0.183
UCCUCAAGUCCUGUGCUACACAUCGUAUGUACCGAAUCGGGAGGAGGGGAGGAAAGUAUUAUGUUACGCCGUUCGGAUCUGCACUUCCAG	0.244
CUCAAGUCCUGUGCUACACAUCGUAUGUACCGAAUCGGGGUGGGGUGGGGUGGAAAGUAUUAUGUUACGCCGUUCGGAUCUGCACUUCCA	1.02
UGGGAGGUGGAUUUUGCUUAUUUUUUUAGCUCAUUUCCAGGGGUGGGAAUUUUUUUUUAAUAUGUGUCAUGAAUAAAGUUGUUUUUGAAA	0.212
UCCUGUGCUACACAUCGUAUGUACCGAAUCAAAUUUUUUUAAACCCCCCCAAAUUUAAAAAAGUAUUAUGUUACGCCGUUCGGAUCUGCA	0.515
GUCCUGUGCUACACAUCGUAUGUACCGAAUCGGGGAAAGGGGAAAAAGGGGAAAGGGGAAAGUAUUAUGUUACGCCGUUCGGAUCUGCAC	0.319

Study 4
Target: RING finger protein unkempt homolog, zinc fingers 1-6, GST-SBP tag (UNK, Homo sapiens, UniProt Q9C0B0, residues 30-357)
Sequence of UniProt Q9C0B0 (30-357, looked up): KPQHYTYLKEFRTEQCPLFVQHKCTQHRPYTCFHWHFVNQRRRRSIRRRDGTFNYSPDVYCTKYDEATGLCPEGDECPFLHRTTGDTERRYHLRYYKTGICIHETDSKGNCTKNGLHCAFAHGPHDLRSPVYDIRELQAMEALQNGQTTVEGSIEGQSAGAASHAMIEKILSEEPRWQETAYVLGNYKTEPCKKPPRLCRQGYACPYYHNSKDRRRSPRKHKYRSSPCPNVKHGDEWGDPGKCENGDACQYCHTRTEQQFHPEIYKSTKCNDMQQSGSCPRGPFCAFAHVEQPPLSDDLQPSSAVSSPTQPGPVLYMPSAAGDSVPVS
Method: RNA Bind-n-Seq
Molecule type: RNA
Sample: in vitro
Tested at: not given
Setting: RNA with constant flanks, human and mouse sites, ends assumed
Relative to: input RNA pool
Direction: higher = stronger binding
All sequences stand within: GGGAGUUCUACAGUCCGACGAUC … CAACAGAGGAUUGAGCAUCA
Strand	bound/input enrichment [ratio]
AAAAUUUUUGCCUUUGCCAACUCAUUAGUGGAGCUUCUGGCUGUGGGACUAGACACCUUUAACAGAGCCCGCUACAGGCAGUUUGUGAAGCGCAUUGGAUACCUGAUCAGGAUGACCCUU	0.27
UGAGGUUUGGCAGAGUGCUGUUGUCCAUCUUGUUGGCCUGUCUGUGAGUUUCGAAUGUGGAUAGACAGAGGGAAUCUGAGUGCAGUUCUACUUGGAAAACCAUCUCUCCCCAGAGUAGGA	0.397
UCAUGGUGUGAAAUAUAUCUACCCAAAGAGGUAACAUCCUAUAAAUAGUAGUAAUUAAUUUAGCUGCAACCUUUUUAGGUAUUAAAUUACAUGACAAACAGUUAAAAUGAAUUUAAGAAU	10.4
AUGGCUUCAGAAGAGCUACAGAAAGAUCUAGAAGAGGUAAAGGUGUUGCUGGAAAAGGCUACUAGGAAAAGAGUACGUGAUGCCCUUACAGCUGAAAAAUCCAAGAUUGAGACAGAAAUC	0.611
UUCUGUUUGUGCCCAGUGAUGUCUUUCCUUGUCUUCCUUUUGACUGUAUUUUAAGAUUACUUUAGAUGAUUCUGUGCAAUGUUUAUGACCUUUCCUACCCUUCUAAUGUUCAGUUAACAC	0.847
AAACACGAGCGGAUUGAAAACGACGUGGCCACCAUCCUGUCUCGCCGCAUUGCUGUGGAGUAUAGCGACUCGGAAGAUGACUCGGAGUUCGAUGAAGUAGACUGGCUGGAGUAAGAAAGC	0.159
AGUAAGCGGGACUUUAUGCUGAUCACAAACAGAUCCCUGAAAGAGGAAGAUGGAGAAGAAAUAGUUACCUAUGACCAUCUGUGUAAGAACUGUCAUCAUGUAGUAGCCAGACACGAGUAU	0.962
GAAAUAGCAAGUCUUGAUUCAGAGAAUAUAGAUGAAAUUUUAAAUAAUGCUGAUGUUGCUUUAGUAAAUUUUUAUGCUGACUGGUGUCGUUUCAGCCAGAUGUUGCAUCCAAUUUUUGAG	16.7
CUUGGGGACCUUCGAACUCUGGAGCUGCUGCUUAUCUGUGCAGGCCAUCCUCAAUAUGAGGUAGUAGAAAUUUCAUUUAACUUUUGGUACCGACUGGGGGAACAUUUGUACAAAACUAAC	0.328
CUGGAGGAGCUGAAACUUGAAUCUGCAGAGCUCUAUGCCGAGGCCAUAAAGCGGGAUACCAGCCUAUUCCCCUUCGAGAAAGAAGGGCCACAUUACACACCACCUAUCUCUAACUACCAG	0.271
GGCACUGCACAUGAAGAUGCUGCAGCCUCCCCGUGUGGUCAUUCAAGAUCAACAGAAGGUUCCCUUCACCCUGGGGAUGUACAUAUCCAAAUAAACUCCGGACCAAAAGAAUAUUCUGAA	0.178
